Measured values of several laboratories.
Concentration: 1 µM
Sequence of UniProt P11802 (whole entry, looked up): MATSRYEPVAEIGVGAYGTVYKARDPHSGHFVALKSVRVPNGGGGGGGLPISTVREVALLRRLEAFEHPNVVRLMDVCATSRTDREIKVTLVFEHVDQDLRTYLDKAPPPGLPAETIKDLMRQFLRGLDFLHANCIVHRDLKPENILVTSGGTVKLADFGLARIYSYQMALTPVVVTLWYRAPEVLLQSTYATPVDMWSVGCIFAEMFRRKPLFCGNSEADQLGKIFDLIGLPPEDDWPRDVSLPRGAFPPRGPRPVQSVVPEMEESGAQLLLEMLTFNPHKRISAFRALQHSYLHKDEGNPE
Sequence of UniProt P04049 (whole entry, looked up): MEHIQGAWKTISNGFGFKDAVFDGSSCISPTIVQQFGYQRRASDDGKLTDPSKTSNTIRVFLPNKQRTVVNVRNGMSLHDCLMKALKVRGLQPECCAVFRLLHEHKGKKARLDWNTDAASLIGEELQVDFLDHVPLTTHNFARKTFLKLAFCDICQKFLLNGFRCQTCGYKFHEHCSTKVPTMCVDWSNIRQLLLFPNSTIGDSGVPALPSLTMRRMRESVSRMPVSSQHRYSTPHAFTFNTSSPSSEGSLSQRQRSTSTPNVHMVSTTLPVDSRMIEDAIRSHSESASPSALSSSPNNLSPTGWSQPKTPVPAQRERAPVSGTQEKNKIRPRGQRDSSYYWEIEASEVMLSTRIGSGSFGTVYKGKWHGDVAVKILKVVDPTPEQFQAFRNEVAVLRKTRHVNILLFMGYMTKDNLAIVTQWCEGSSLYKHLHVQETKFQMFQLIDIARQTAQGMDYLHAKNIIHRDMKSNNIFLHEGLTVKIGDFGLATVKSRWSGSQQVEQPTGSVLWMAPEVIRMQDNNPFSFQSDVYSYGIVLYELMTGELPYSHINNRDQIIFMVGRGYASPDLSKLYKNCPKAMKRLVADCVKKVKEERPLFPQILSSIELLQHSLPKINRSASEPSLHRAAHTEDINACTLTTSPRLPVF
Sequence of UniProt P36897 (whole entry, looked up): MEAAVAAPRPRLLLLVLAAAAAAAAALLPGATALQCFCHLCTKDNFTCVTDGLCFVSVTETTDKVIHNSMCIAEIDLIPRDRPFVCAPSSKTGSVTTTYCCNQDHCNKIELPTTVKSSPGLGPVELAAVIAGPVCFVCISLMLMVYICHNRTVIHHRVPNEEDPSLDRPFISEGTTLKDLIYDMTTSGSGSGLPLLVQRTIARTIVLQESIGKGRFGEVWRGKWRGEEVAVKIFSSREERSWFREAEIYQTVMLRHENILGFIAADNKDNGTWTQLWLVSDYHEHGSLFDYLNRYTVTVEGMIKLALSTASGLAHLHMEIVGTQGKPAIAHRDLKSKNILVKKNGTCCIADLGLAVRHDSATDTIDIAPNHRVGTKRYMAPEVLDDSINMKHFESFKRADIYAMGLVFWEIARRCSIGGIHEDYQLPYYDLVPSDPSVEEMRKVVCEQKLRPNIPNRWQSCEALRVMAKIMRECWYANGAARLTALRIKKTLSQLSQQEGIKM

CNc1ncc2c(/C=C/C(=O)N3CCC(OC)CC3)nn(Cc3cccc(C(F)(F)F)c3)c2n1 gave a remaining activity of 101% (Cyclin-dependent kinase 4, with cyclin D2 (CDK4, Homo sapiens, UniProt P11802); enzyme activity, inhibitor, radiometric).
C=CC(=O)N1CCC(COCC(=O)N2CCN(c3nc(-c4cnc(N)nc4C(F)F)nc(N4CCOC[C@@H]4C)n3)CC2)CC1 has a remaining binding of 92% (Receptor-type tyrosine-protein kinase FLT3, autoinhibited (FLT3, Homo sapiens, UniProt P36888); binding, competition with immobilised ligand).
COc1cc(-c2cncc3c2CN(C)Cc2cc(N4CCNCC4)ccc2-3)cc(OC)c1OC gave a remaining activity of 101% (RAF1 (Homo sapiens, UniProt P04049); enzyme activity, inhibitor).
Cc1cc([C@@H](C)Nc2ccccc2C(=O)O)c2nc(N3CCC(F)(F)CC3)c(C#N)c(=O)n2c1 has a remaining binding of 71% (TGFBR1 (Homo sapiens, UniProt P36897); binding, competition with immobilised ligand).

Excerpt of the above:
CNc1ncc2c(/C=C/C(=O)N3CCC(OC)CC3)nn(Cc3cccc(C(F)(F)F)c3)c2n1 gave a remaining activity of 101% (Cyclin-dependent kinase 4, with cyclin D2 (CDK4, Homo sapiens, UniProt P11802); enzyme activity, inhibitor, radiometric).
